Measured values from different studies.
Numbered parts are unrelated; each lists some results of a single study.

Block 1
Target: Prothrombin, mature alpha-thrombin (F2, Homo sapiens, UniProt P00734)
Method: aptamer microarray, sandwich
Molecule type: DNA with 2'F-ANA
Sample: in vitro
Tested at: 200 nM
Setting: whole 15-mer aptamer, many near background
Added: Cy3 exosite-II aptamer, 400 nM
Reading: higher = stronger binding
Sequence: GGTTGGTGTGGTTGG
Modification	mean fluorescence intensity [a.u.]
2'F-ANA at 1 2 3 5 6 9 12 14 15	58.3
2'F-ANA at 6 9 10 12 13 15	163
2'F-ANA at 1 2 3 4 5 6 7 9 13	52.1
2'F-ANA at 1 2 3 5 6 7 9 10 11 13 14 15	71.2
2'F-ANA at 1 2 3 5 6 7 8 9 10 11 12 14	60.5
2'F-ANA at 1 3 5 6 7 8 10 13 14	51.2
2'F-ANA at 4 6 8 9 14	82.5
2'F-ANA at 3 4 5 6 7 9 10 12 13 14	107
2'F-ANA at 3 4 6 7 8 10 11 14 15	292
2'F-ANA at 4 7 8 9 10	93.2
2'F-ANA at 4 6 10 11 14 15	56.3
2'F-ANA at 1 3 5 6 9 10 14 15	63.9
2'F-ANA at 1 4 9 10 15	61.2
2'F-ANA at 2 3 4 9 10 12 13 14 15	203
2'F-ANA at 1 3 5 6 8 12 14 15	47.6
2'F-ANA at 1 2 8 9 12 13 14	62.2
2'F-ANA at 1 3 4 5 6 8 11 12 14 15	48.3
2'F-ANA at 4 5 7 10 12 13 15	47.3
2'F-ANA at 9 10 11	154
2'F-ANA at 1 3 4 5 6 7 8 9 11 13 14 15	62.4
2'F-ANA at 1 2 3 5 10 12 13	50.4

Block 2
Target: RING finger protein unkempt homolog, zinc fingers 1-6, GST-SBP tag (UNK, Homo sapiens, UniProt Q9C0B0, residues 30-357)
UniProt Q9C0B0, sequence (30-357, looked up): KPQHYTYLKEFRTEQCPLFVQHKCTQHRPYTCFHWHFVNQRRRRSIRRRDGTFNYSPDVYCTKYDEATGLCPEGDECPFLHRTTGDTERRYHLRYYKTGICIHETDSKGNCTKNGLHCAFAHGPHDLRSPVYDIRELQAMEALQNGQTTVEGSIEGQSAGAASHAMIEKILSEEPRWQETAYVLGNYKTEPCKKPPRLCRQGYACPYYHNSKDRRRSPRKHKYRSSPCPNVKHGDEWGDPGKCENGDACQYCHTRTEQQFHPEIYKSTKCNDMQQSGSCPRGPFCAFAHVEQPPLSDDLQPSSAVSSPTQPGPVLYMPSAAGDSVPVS
Method: RNA Bind-n-Seq
Molecule type: RNA
Sample: in vitro
Tested at: not given
Setting: RNA with constant flanks, human-mouse chimeric sites, ends assumed
Baseline: input RNA pool
Reading: higher = stronger binding
All sequences stand within: GGGAGUUCUACAGUCCGACGAUC … CAACAGAGGAUUGAGCAUCA
Sequence	bound/input enrichment
CGGAGCCCUCCUCUCCCCCAGGCCCGAGAUAUAACCCACCAGUGCCUUUUGUCUUCCUGUCAGCUCUGUCAAUCACGCCUGUCCUCUGUCCCUCUCACCAAGUGCCCAAAGUGGGGAGGG	0.58 ratio
AGAAAGCAAAACUUGGAACGAUUUAAGAAAGGAGAUGUAAGAUUCUUGAUUUGCACAGAUGUAGCUGCUAGAGGGAUUGAUAUCCAUGGCGUUCCUUAUGUGAUCAACGUCACCCUGCCU	0.2 ratio
UGUAACUUAUCUGUAAAAAAGGUUUCUCCCCUACUGUCAAAAAAUAUGCAUGUAUAGUAAUUAGGACUUCAUUCCUCCAUGUUUUCUUCCCUUAUCUUACUGUCAUUGUCCUAAAACCUU	1.13 ratio
GUCAACAGUUGUCUCAACCCCAUCCUCUACGCCUUCCUGGAUGAGAACUUCAAGGCCUGCUUCCGCAAGUUCUGCUGUGCAUCUGCCCUGCGCCGGGACGUGCAGGUUUCUGAUCGUGUG	0.291 ratio
AGUACUGACUCAGGCGGAUUUUGCAACACCAAGCUCACAGCAGCAGCAUCUUAGUCACAGUAGGGUAGUUUUGGGGCUCUGUGGCCAUGGUUUUACUCACAUGCAGGUUUGGAAAAUGUA	1.66 ratio
GUAGCUGGCCAUUAGGAAAUGCUGGUAAUUUCAGUCACUUGCUGAUGACUUCUGAUGACCUAGCAAAUGUUGGCAUUGUUGACUGCUGAGAAGAUACUUCUGAGGACCCACGUCUAAGGU	0.15 ratio
CUGAAAAACACAGAUAUCAAAGUUGUUGACUUUGGAAGUGCAACGUAUGACGACGAACAUCACAGUACUUUGGUGUCUACCCGGCACUACAGAGCUCCCGAGGUCAUUUUGGCUUUAGGU	0.243 ratio
UCUGGCCACACUCGUGUGUAUGGUGUUUGCUUUGUGGACACUUCACUGGGCAAGUUUUUCAUCGGCCAGUUUUCGGAUGAUCGCCAUUGUUCCAGAUUUAGGACGCUAGUGGCUCACUAU	0.212 ratio
UACUGCUUUCAACUUAAUAAAUCACUGAGGCAUCUCUACUGUUCUGUGAGCAUCAGGACUGUAGCGCUGUGUCACCACAUGAGAGUUCAGAAGCAGCCUUUCUGUGGAGGGUGGGAAUGA	0.131 ratio
UCUUUAAAUGCACUACAACCUUUUCUGACAGUGCUUUCCCUCCCAUAGAUCCACGUUCAAGCUCAAAGAGCAAAGGCUUUGCACGGAGCUCAAACAUCUGAUGAAGAUUUUUGAGACAGA	0.493 ratio
GGUGGGGUGGUCAUUGCCGUUUGAGCUGCUGAUUUUCUUAUGAAUCAUUCAAAACUCUCGUGUAGGGUUGACACUGUGGGGGGGUGGGGGAUCCAGCUUAUUCUUUUAUUUUCAAGUCCA	0.89 ratio

Block 3
Target: RNA binding protein fox-1 homolog 2, RRM domain, GST-SBP tag (RBFOX2, Homo sapiens, UniProt O43251-10, residues 100-194)
Method: RNA Bind-n-Seq
Molecule type: RNA
Sample: in vitro
Tested at: 365 nM
Setting: natural RNA segment, single round, ends assumed
Baseline: no-protein control
Reading: higher = stronger binding
All sequences stand within: GGGAGUUCUACAGUCCGACGAUC … UGGAAUUCUCGGGUGCCAA
Residues (chain): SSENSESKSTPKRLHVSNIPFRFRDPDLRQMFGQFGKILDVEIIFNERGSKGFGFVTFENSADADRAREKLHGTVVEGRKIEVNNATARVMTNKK
Sequence	RBNS enrichment (R)
UUAUGAAAACAGAUGCCCCCGUGAAUGCUUACCUGUGAGAUAACCACAACCAGGAAGAACAAAUCUGGGCAUUGAGCAAGCUAUGAGGGUCCCCGGGAGCACACGAACCC	0.568
CAGUGGCGGAGUGAGGUGCCCUGGAGAAGCAGGCUUUGAAGGCACAGCGAAGCUGUAACUGAGGACCCUGCUGCUCGGGAAGGAGGUGGUUUCCAGUGUGACUCGGCAUG	0.649
GAAUUGCCACAGGACACUAUGGCCUUGCUGGGCUAGCAUUUGCUGCUGUAAUCUAGUUGCUCUGGUAUAGAAGAGAACCCCAUGGGGCUGUGGGAGAGACAAUUCAGUGG	1.06
AUGGGCGCCUGGGUGUGGUCUUGUUAAAUCGGUGUCGCACAUUUUAAUCGGUAAUCUGCUGGCUUGUUUGUUAACCAGAACGAUGAAUUUAUCAGUGAUUUGUAAGUUUC	5.32
AGCCUCAACUGUAACCUGCAGCAAACAGAGAAAUAACAUUCCUGGCAGGAAGAUACAAGUCUUUUUAAAGUUUACUGAUGCUUAACUCUGUGGGCUCGUAGUCCUCUGAA	0.27
ACCCUGUACACACCUAGUUCAUAAUCCUCAUAAUUUAUCAACAAACACAAAAAAGUGUCUUACUUGAGAGUGAGUGUGUGUGUGUGCGUGUGCACGUGCACACAUGUGCA	3.35
CACACAUAAAAGAGAGAGGGAGUAUGUUUGUGUGUUUCAUGUGCAUACAUAUAUACACACUCCUAACAUUCCCACUCGGGAGGCCAAGGCCAGCACAUCUCUAAAUUUGA	0.359
CAUUUUAUGUCACUAUAAUCUUUUGUUUUUUAAGUUAGUGUAUAUUUUGUUGUGAUUAUCUUUUUGUGGUGUGAAUAAAUCUUUUAUCUUGAAUGUAAUAAGAAUUUGGU	4.35
ACAGCCGUUCCCCAGGGUCUGAAACUUACCUGUCACGCACAGGUAGAGCAGUGCUAGCUAGCAUUACUGGCUUCCUGCUACUUUUUCGUUUUUUUAAAUUUUUUAUUCUG	0.3
CGGCUUUUGAAGGCCAGUAACCAUUGUUGUGGUUGUGUUUUGUAUUGCUUGAUACCAUGAAAGUGUAAAUACUGUAAUGCCUAAUCUAUUUAUCAAAACUGACUACUGGA	0.616
UCUGUCAGCAGGUGGCCUUGCCUGGGGAGCCCCAUGUGUGGCCCACCCCACCAGGCCAUCCCCAUACCUUCUGGUUUGAAGGCGCUGACACUGGCAGAGAGGUAAAGGGU	0.222
CGCUGUCCAAGAAGUGGCUCCCCAAAGUAUAAGUGCGGGUGAGGUUUACUGAUACCCCACAGUGGAAGGCAUUUCUUCCAGAUAUUUUCCAGAUACCUUGGCCGCCAAAC	0.544

Block 4
Target: Ras GTPase-activating protein-binding protein 1, RRM domain (G3BP1, Homo sapiens, UniProt Q13283)
UniProt Q13283, sequence (whole entry, looked up): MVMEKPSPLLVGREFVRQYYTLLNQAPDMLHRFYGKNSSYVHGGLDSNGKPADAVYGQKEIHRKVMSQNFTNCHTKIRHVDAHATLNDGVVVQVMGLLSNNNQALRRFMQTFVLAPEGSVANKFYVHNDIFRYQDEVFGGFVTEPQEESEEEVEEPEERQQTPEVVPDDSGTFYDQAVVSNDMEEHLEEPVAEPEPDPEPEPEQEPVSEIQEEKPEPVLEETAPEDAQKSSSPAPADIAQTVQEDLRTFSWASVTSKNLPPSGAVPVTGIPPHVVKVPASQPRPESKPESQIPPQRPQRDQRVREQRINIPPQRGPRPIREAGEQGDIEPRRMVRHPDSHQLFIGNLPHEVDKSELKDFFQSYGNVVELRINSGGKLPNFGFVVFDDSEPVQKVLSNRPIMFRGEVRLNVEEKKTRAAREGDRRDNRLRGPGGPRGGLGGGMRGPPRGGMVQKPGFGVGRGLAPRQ
Method: RNA Bind-n-Seq
Molecule type: RNA
Sample: in vitro
Tested at: 1 µM
Setting: whole 134-nt RNA, ends assumed
Added: 150 mM KCl
Baseline: input library
Reading: higher = stronger binding
All sequences stand within: GGGAGUUCUACAGUCCGACGAUC … UGGAAUUCUCGGGUGUCAAGG
Sequence	log2 enrichment
UAACUUUAGAGGAGGAUCUGAUGGAUAUGGCAGUGGCCGUGGAUUUGGGGAUGGCUAUAAUGGGUAUGGAGGAGGACCUGGAGGUGGCAA	-0.714
UGGCCCUGGUGGCAUGCGGGGAGGAAGAGGUGGCCUCAUGGAUCGUGGUGGUCCCGGUGGAAUGUUCAGAGGUGGCCGUGGUAGAGACAG	2.52
GUCCUGUGCUACACAUCGUAUGUACCGAAUCGGGGAAAAAGGAAAAAGGGGAAAAAGGAAAGUAUUAUGUUACGCCGUUCGGAUCUGCAC	-0.0922
UUUCAGGGCGCCCUGCGUCCGGCAGAGGAGGCGAGCAUCCCGCUCAGGUGAUGAGGAACCCCUCGCGCACCCAGCGCAGAAGGCUGCUGC	-0.648
AAGUCCUGUGCUACACAUCGUAUGUACCGAAUCGGUUUUGGGUUUUGGGGUUUUGGAAAGUAUUAUGUUACGCCGUUCGGAUCUGCACUU	-0.212
CAAGUCCUGUGCUACACAUCGUAUGUACCGAAUCGGUUUUGGUUUUGGUUUUGGGGAAAGUAUUAUGUUACGCCGUUCGGAUCUGCACUU	-0.281
GCAGGAAGUAAACACAAAUGGAAAUGCUUCGGAUAGUGGCAGGGGUGGGGGUUGCUAAGGAAAGGGUGGGAUGGGAGUGGGUAAAGAGUU	1.26
UGGCCCUGGUGGCAUGCGGGGAGGAAGAGGUGGCCUCAUAGAUCGUGGUGGUCCCGGUGGAAUGUUCAGAGGUGGCCGUGGUGGAGACAG	1.15
CACAGACAACACGCACCCACACAGACACAGAGGGAAGGGGUUGGGAUGGGGACAGGGGGCACAGCAGGGCGGGGUAGGACCCCAGCCCCU	-0.0894
ACCAUGCAGGUGGGCAUCUUCGGGAAGUGGGGCAAGGGGGGGAUAGGGAGGGGGGUAACACUUUGGGAACAGGUGGUCCCAGGUCGUUUC	-0.43
AGUCCUGUGCUACACAUCGUAUGUACCGAAUCGGGAAAAAGGGUGGGUUUUUUUGGGAAAGUAUUAUGUUACGCCGUUCGGAUCUGCACU	0.548
CCUCAAGUCCUGUGCUACACAUCGUAUGUACCGAAUCGGAAGGAAGGAAGGGGAAAGUAUUAUGUUACGCCGUUCGGAUCUGCACUUCCA	-0.252
CUGUGCUACACAUCGUAUGUACCGAAUCGGGGCCCCCCCGGGGCCCCCCCGGGCCCCCCCGGAAAGUAUUAUGUUACGCCGUUCGGAUCU	-0.565
UGGCCCUGGUGCCAUGCGGGGAGGAAGAGGUGGCCUCAUGGAUCGUGGUGGUCCCGGUGGAAUGUUCAGAGGUGGCCGUGGUGGAGACAG	0.752

A few entries again (block 1):
Modification	mean fluorescence intensity [a.u.]
2'F-ANA at 1 2 3 4 5 6 7 9 13	52.1
2'F-ANA at 1 3 5 6 7 8 10 13 14	51.2
2'F-ANA at 3 4 6 7 8 10 11 14 15	292
2'F-ANA at 1 3 4 5 6 7 8 9 11 13 14 15	62.4
2'F-ANA at 1 4 9 10 15	61.2
2'F-ANA at 4 6 8 9 14	82.5
2'F-ANA at 1 3 5 6 9 10 14 15	63.9
2'F-ANA at 9 10 11	154
2'F-ANA at 1 3 4 5 6 8 11 12 14 15	48.3
